Experimental data gathered from unrelated publications.
Numbered parts are unrelated; each lists some results of a single study.

Sample 1 — method: protein binding microarray; molecule type: double-stranded DNA, one strand shown; matrix: in vitro; tested at: not given; reference: not given; direction: higher = stronger binding; measurement: E-score
Target: Histone acetyltransferase KAT6A, winged helix 1, GST fusion (KAT6A, Homo sapiens, UniProt Q92794, residues 1-85)
Notes: 8-mer, flanks averaged, mean of 2 arrays, mostly near background
Residues (chain): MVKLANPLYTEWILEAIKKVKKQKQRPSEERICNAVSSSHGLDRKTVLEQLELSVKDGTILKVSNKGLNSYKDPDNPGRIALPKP
ACGCCATG: -0.048
AGTAACCC: -0.0889
CTTTTAGA: 0.00358
TGAGTCCA: -0.138
CGTTCTCC: -0.138
CACACGTG: -0.0625
CTCAACCA: -0.138
GGTCGTAC: -0.0011
ACTGTGAC: -0.157
GCCTGCTA: -0.123
AAACGGGA: 0.203
AGCGTGTC: 0.131
AACACTAT: -0.0361
CAGAGTGA: -0.233
ATAGAGAA: -0.182
ATTACTAC: -0.123
CGACGGAA: 0.386
AGCTTCAT: -0.0485
AGAGGTAT: -0.0369
CGCATTAC: 0.299

Sample 2 — method: protein-binding microarray; molecule type: double-stranded DNA, one strand shown; matrix: in vitro; tested at: 940 nM top; notes: 60-bp whole probe; added: salmon DNA 0.4 mg/ml; reference: random background probes; direction: higher = stronger binding; measurement: fitted relative affinity; all sequences stand within: GCCTAGCAC … GTCTTGATTCGCTTGACGCTGCTG
Target: Interferon regulatory factor 5, full length, phosphomimetic (IRF5, Homo sapiens, UniProt Q13568-2, residues 1-514, S451D/S453D/S456D/S462D)
TTAGGTCTCCTCATCCTTTAGTGCTAG: 0.642 z-score
TTAGAAATCGGGTTTCGATTAGTGCTA: 5.86 z-score
TTAGGACTGATACTGCTTTAGTGCTAG: 0.376 z-score
TCAGAACTGAGACTGGATTAGTGCTAG: 0.146 z-score
GACGGACTGCTTATCCTCACGTGCTAG: -0.418 z-score
GTAGGTATCGGACTGGGTTAGTGCTAG: 3.28 z-score
TCATTTTAATTTTTAACACTGTGCTAG: 0.492 z-score
TCAGCTTTCTCTTTCATACTGTGCTAG: 2.41 z-score
TTAGGTATCGGGGATCGGTTAGTGCTA: 3.79 z-score
TCACCTCTCCCCTCTTGTACTGTGCTA: 0.448 z-score
TTAGGTTTCGGGATTGGGTTAGTGCTA: 8.66 z-score

Sample 3 — method: RNA Bind-n-Seq; molecule type: RNA; matrix: in vitro; tested at: 365 nM; reference: no-protein control; direction: higher = stronger binding; measurement: RBNS enrichment (R)
Target: RNA binding protein fox-1 homolog 2, RRM domain, GST-SBP tag (RBFOX2, Homo sapiens, UniProt O43251-10, residues 100-194)
Notes: natural RNA segment, single round, ends assumed
All sequences stand within: GGGAGUUCUACAGUCCGACGAUC … UGGAAUUCUCGGGUGCCAA
Construct (chain): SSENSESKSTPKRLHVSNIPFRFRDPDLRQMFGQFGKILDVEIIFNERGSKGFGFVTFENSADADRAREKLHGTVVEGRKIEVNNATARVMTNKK
AAAUGGUAAUCAAGUGUGAUGUUUCUAUAAAAAUAAUUGAGAUUCACAUGUAAUAGACCCUUUAGCUUUAAUGAGCAGACAUGAGAAUGGUUUAUGAUCUUAAGUUGGUA: 0.799
UCCAGCCUCUGGCUUGAGAACUUACUAAAGGCACUUCCUUCCUGUUAAACCCCUGUUAACUCUCCAUAAAUUUGGUGAUUCUCUGCUAGGCCUAAGAUUUUGAGUUAACA: 0.451
GGUAUAUUUGCUUCUCGGGAAAGCAAAGAAGCUGCUUUAAGAAAAUUAAAAGGGGACUAAAAAUUUGUUUUGUAUAAAGAGGAUAGCCCUGCGCACGUAGGACUGAAUUC: 2.4
ACUGUAAUAUUGUGGGACUAACAUGGAUGUAACGUUUAAAAAAAAGAUCAGGAUUAUUAGUAACAAUUCUAGUUUUUUCCUCCCACCUUCUCCCUCUCCUCUCUCCUCUA: 0.698
UCUGGGGUCUGGGCCAGUGGCCAUAGUGAAGCCUGGGAAUGAGUGUUACUGCAGCAUCUGGGCUGCCAGCCACAGGGAAGGGCCAAGCCCCAUGUAGCCCCAGUCAUCCU: 4.71
UCCCAUCCCCUGAGCAUCUUUUCGUAUUUAGAUUUGUCUCUGUUAAAAUGAUGAAACGGAAAUCGGUCCUGUCGUCUUGUUAGCAUGAUUCAUGUAUUUAUAUAGAUCCG: 0.455
AACCAUUUCCAUGCUCAGCGUGGUUCGCUGUGUGCCACGUGUGGUCUCCCAGUGACCGGCCGCUGUGUGUCCGCUCUGGGCCGACGCUUCCAUCCAGACCACUUCACCUG: 0.291
GAAGCCUCCUGUCUCCCCUUUCCCCGCGUCCGAGAAGGCGGAAACCCACAGUGUUACCUGACUUAUGAAACUUGAAACCGCCUCUGGAGCCGCCAUUCUGCAGAGUAUUU: 0.648
UCAGCAGAAGUAACUGAAGUAGAUCAGGAAGGGGCUGCCUCAGGAAAAUUCCUAGAUCCUAGGAAUUCAGUGAGACCCUGGGAAGGACCAGCAUGCUAAUCAGUGUCAGU: 0.598
AUUGUUUAUUUCAAGAAAUAGCUUUGUUACAGUAAAAUAUUUGUCAUUUAAAACCCAGCUGUUUAGCAAGGAGUGUUGGCUCACACCUACAAUCCCAGCAUUUGGGAAGC: 0.763
CAGACGCAGAUGGAGACUGAGGCCGGCUGUGCAUCCCCGCUGGUGCCUCGGCUGCGACGUGUCCAGGCGUGGAGAGUUUUGUGUUUCUCCUGUUCAGUAUCCGAGUCUCG: 0.173
GGGCUCUGUCUCUGCCUUGACCUCCUGGGUCAAGUCCCUGACCUCAGGAUACCUGCUGUCCACCCAACAGACUGCAAACAUCAACUGUGUUUGGUGCUGACACUCUGAAC: 0.259

Sample 4 — method: RNA Bind-n-Seq; molecule type: RNA; matrix: in vitro; tested at: not given; reference: input RNA pool; direction: higher = stronger binding; measurement: bound/input enrichment
Target: RING finger protein unkempt homolog, zinc fingers 1-6, GST-SBP tag (UNK, Homo sapiens, UniProt Q9C0B0, residues 30-357)
UniProt Q9C0B0, sequence (30-357, looked up): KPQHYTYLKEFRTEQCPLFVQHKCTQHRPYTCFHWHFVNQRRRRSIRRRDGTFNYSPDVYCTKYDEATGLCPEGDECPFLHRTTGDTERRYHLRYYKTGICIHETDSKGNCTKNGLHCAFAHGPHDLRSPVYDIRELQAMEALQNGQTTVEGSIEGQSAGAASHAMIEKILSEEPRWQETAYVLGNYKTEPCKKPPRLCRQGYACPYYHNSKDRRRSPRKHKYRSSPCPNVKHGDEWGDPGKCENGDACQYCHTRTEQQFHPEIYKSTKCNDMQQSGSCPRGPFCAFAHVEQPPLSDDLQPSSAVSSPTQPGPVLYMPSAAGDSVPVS
Notes: RNA with constant flanks, human and mouse sites, ends assumed
All sequences stand within: GGGAGUUCUACAGUCCGACGAUC … CAACAGAGGAUUGAGCAUCA
GCGGCAGAAUCAUGGAGGACAUAAUGCAGCUCCCCAAAGCGCGCGUCAACGCCAGCAUGUUACCACAGUAUAUCGACCGGCCCGUGUGCUUCGUGGGGAAGCUGGAAAAGAUUCAUCCCA: 0.107 ratio
UUUGAGCUGAUGACCAGCCUCCACACCAAGCUAGAAGGCUUCCACACUCAAAUCUCUAAGUAUUUCUCUGAGCGUGGUGAUGCAGUGACUAAAGCAGCCAAGCAGCCCCAUGUGGGUGAU: 0.204 ratio
GGGAAAGCUUUCAUUCAGAAGUCAAGCCUCAUUAGACACCAGAGAAGUCACACAGGAGAGAAACCUUAUACGUGUAAGGAAUGUGGGAAAGCCUUCAGUGGCAAGUCAAAUCUCACAGAG: 0.302 ratio
AUGGUUGAACUCAACGGAAAUCAGCCCAUGGAGAUCAAAGUCCUGGGUCCUUAUACCUUUAGCAUCUGUGACACCUCCAACUUCUCCGACUACAUCCGUGGAGGCAUCGUCAGUCAGGUC: 0.208 ratio
UAAUGUAAACUUUCCAGUGGAUUGUUACUUACACACCUGAUACUAAGAAUUAAGUAGAAGAUAGAUUUUUAUGGACACUCUAGCUGUAUUGGAGCACUACUGGAUUUUAUAUUUCAGUCA: 0.813 ratio
GAAUUGUCCCAUUUGCUGUCUUUAGAGGCCACGGCUUCAUUUCUAUGCGUAAAAAGCUCAUUUAGCAAUGUAGUUAUUUCAGUAUUUAUUUCUAUUAUGGAAUCCCUGGGGUUCGGAAUG: 4.89 ratio
GUGAGUAAGUAGUUGGGUAUAAGAUCUGAACUUUUCAUCUGCAGAGGCAAGAAAAAUAUUUGACAUUGUGACUUGACUGUGGAAGAUGAUGGUUGCAUGUUUCUAGUUUGUAUAUGUUUC: 0.583 ratio
ACAAAGAAGAUGUCAGAAAACAAAGACAAGAAUGGCAAGAAAAGCAGCAAGAACAAGAAAAGUUUUAAAGAAAGAUGUUGCUUACUAUGAGUGUCAAGGUGACGGAUGAAGCCAGCUGCU: 0.295 ratio
UGGGUGUGUUCAUACCAGAAGCUCUCAUCACAGUCACACCCAUUUCGUGGCAGCUGUGGAUCAUUUUACGUAUUUUUAGUCAGGCUCAAAGAAGUGACUCAGGUUUGUCAAGUUCUGUUC: 1.8 ratio
UGCAUGGAAUCUGCCUCUUAACUCUUAGGAGAUUAAUGUUUGUUCCAAGGCAUUCUGCAGCUGGUAAUUACACUUUAAGUGUCAUCACUAAAAUUUUCUCCUUGUCCUAAGAGUGUGUGU: 0.172 ratio
CUGCGCUUUUACACGGCCCCGCCUGGCCCCCGGCUCGCCCUAUGUUUCGUGGACAUCCGCCGGUUCGGCCGCUGGGACCUUGGGGGAAAGUGGCAGCCGGGCCGCGGGCCCUGUGUCUUG: 0.109 ratio

Sample 5 — method: universal PBM; molecule type: double-stranded DNA, one strand shown; matrix: in vitro; tested at: not given; direction: higher = stronger binding; measurement: E-score
Target: Sal-like protein 4, full length isoform B (SALL4, Homo sapiens, UniProt Q9UJQ4-2, residues 1-616)
Notes: 8-mer, flanks averaged, mean of replicates
Construct (chain): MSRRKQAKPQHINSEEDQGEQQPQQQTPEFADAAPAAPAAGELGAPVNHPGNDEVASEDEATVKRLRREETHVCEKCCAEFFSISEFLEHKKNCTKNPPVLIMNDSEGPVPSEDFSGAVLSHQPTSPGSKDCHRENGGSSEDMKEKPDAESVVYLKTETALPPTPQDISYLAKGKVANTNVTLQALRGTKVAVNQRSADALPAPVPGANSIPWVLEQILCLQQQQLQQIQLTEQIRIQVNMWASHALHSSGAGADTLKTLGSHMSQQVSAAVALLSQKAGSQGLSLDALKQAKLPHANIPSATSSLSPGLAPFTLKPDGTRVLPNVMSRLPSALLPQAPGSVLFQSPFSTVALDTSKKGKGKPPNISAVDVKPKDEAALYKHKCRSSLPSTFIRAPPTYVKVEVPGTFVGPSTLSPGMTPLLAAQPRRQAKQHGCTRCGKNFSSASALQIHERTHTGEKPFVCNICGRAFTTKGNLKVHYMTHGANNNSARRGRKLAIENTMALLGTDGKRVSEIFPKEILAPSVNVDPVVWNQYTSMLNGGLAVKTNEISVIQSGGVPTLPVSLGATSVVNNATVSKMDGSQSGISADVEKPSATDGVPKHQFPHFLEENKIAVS
CCAGCGCA: -0.289
GGATCAAC: 0.0287
TAATGAAA: 0.34
CGCCGAAC: -0.085
GAGCGCCC: -0.402
GTATCCGA: -0.124
ACTGACAG: -0.0233
AAAGTAGG: 0.153
TACTGTCA: 0.105
AGCCTGGC: -0.325
ACTCGGGC: -0.215
GGGCGATA: -0.0958
AAGTCAAA: 0.147
CCGCACGA: -0.105
AACCCGAA: -0.0887
GCAACCTA: 0.0302
CTAAGAAG: 0.157
TAAACCGA: 0.0664
GAGGTAGA: -0.143
TGAGCGCA: -0.177

A few entries again (sample 2):
TTAGGTCTCCTCATCCTTTAGTGCTAG: 0.642 z-score
TTAGAAATCGGGTTTCGATTAGTGCTA: 5.86 z-score
TTAGGACTGATACTGCTTTAGTGCTAG: 0.376 z-score
TCAGAACTGAGACTGGATTAGTGCTAG: 0.146 z-score
GACGGACTGCTTATCCTCACGTGCTAG: -0.418 z-score
GTAGGTATCGGACTGGGTTAGTGCTAG: 3.28 z-score
TCATTTTAATTTTTAACACTGTGCTAG: 0.492 z-score
TCAGCTTTCTCTTTCATACTGTGCTAG: 2.41 z-score
TTAGGTATCGGGGATCGGTTAGTGCTA: 3.79 z-score
TCACCTCTCCCCTCTTGTACTGTGCTA: 0.448 z-score
TTAGGTTTCGGGATTGGGTTAGTGCTA: 8.66 z-score
